Assay results pooled from the literature.
Each line is one published result; not all experiments were run side by side. Values joined by “and” are separate records of one study, mostly repeats; a detail may differ. Numbers after ± are the reported error.
Nuclear receptor subfamily 2 group C member 2 ligand-binding domain: Nuclear receptor subfamily 2 group C member 2, ligand-binding domain (Homo sapiens, UniProt P49116)
T1: riboswitch RNA yjdF aptamer (Bacillus subtilis); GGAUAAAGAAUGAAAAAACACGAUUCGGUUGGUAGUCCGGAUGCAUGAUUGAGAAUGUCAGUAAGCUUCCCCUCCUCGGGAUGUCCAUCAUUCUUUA

SMILES | target | assay | test system | setting | scale | measurement | value
C[C@H](CCC(=O)O)[C@H]1CC[C@H]2[C@@H]3CC[C@@H]4C[C@H](O)CC[C@]4(C)[C@H]3CC[C@]12C | Nuclear receptor subfamily 2 group C member 2 ligand-binding domain | SPR imaging | – | 600 nM | – | koff | 1.62e-06 s⁻¹
CN(C)C(=O)C(CCN1CCC(O)(c2ccc(Cl)cc2)CC1)(c1ccccc1)c1ccccc1 | Calcium-activated potassium channel subunit alpha-1, with LRRC26 γ1 subunit (KCNMA1, Homo sapiens, UniProt Q12791) | BK channel conductance, inside-out patch clamp | – | BKα/γ1, Vm 120 mV, nominally Ca2+-free | – | Hill coefficient | 0.735 ± 0.071
Nc1ncnc2c1ncn2[C@@H]1O[C@H](COP(=O)(O)OP(=O)(O)O)[C@@H](O)[C@H]1O | ATP-sensitive inward rectifier potassium channel 1 (Rattus norvegicus, UniProt P35560) | channel open probability, inhibitor, inside-out patch clamp | – | pH 7.4, Mg2+-free, 1.6 mM | – | Hill coefficient | ~3
CN1C(C(=O)Nc2ccccn2)=C(O)c2sc(Cl)cc2S1(=O)=O | Nuclear receptor subfamily 2 group C member 2 ligand-binding domain | SPR imaging | – | 600 nM | – | koff | 4.55e-08 s⁻¹
Cc1cc2nc3[nH]c(=O)[nH]c(=O)c3nc2cc1C | T1, riboswitch RNA yjdF aptamer (Bacillus subtilis) | fluorescence titration | – | together with: 380 nM lumichrome | – | Kd | 0.04 µM
C=CC(=O)N1CCC(COCC(=O)N2CCN(c3nc(-c4cnc(N)nc4C(F)F)nc(N4CCOC[C@@H]4C)n3)CC2)CC1 | EGFR (Homo sapiens, UniProt P00533, G719S) | KINOMEscan | – | 1 µM | reference: DMSO control | remaining binding | 97%
O=C1OC(c2ccccc2)=N/C1=C\c1ccc(O)c(O)c1 | Pancreatic alpha-amylase (Homo sapiens, UniProt P04746) | inhibitor, Lineweaver-Burk | – | 100 ppm, together with: starch substrate | – | Vmax | 0.05 mg/mL/min
COc1cc2c(cc1OC)C(=O)N(CCCCN1CCN(c3ccccc3OC)CC1)C2 | DRD5 (Homo sapiens, UniProt P21918) | radioligand binding | – | concentration not given, together with: [3H]SCH23390 | – | inhibition | 75.1%
CC1(C)CC2(C)OC(=O)NC2(C)c2ccccc21 (stereo not drawn) | DCAF1 (Homo sapiens, UniProt Q9Y4B6) | binding, affinity selection mass spectrometry | – | – | reference: other proteins in batch | fold enrichment | 0.815
CCc1oc2ccccc2c1C(=O)c1cc(Br)c(O)c(Br)c1 | SLC22A12 (Homo sapiens, UniProt Q96S37) | inhibitor | HEK-293T | 0.01 µM, 10 min, 37 °C, together with: [14C]urate 10 µM | – | normalized urate uptake | 0.939 and 0.879 and 0.964
C[C@@H]1CCO[C@H]2Cn3cc(C(=O)NCc4ccc(F)cc4F)c(=O)c(O)c3C(=O)N12 | SLC29A4 (Homo sapiens, UniProt Q7RTT9) | transport | MDCK-II, transfected | 50 µM, together with: MPP+ 10 µM | – | inhibition | -0.475%
CC[S+]([O-])c1nc(-c2ccccc2)cc(C(F)(F)F)n1 (stereo not drawn) | Exportin-1 (XPO1, Homo sapiens, UniProt O14980) | nuclear export, high content imaging | HeLa Kyoto reporter | 0.05 µM, 2 h | – | cells with nuclear reporter | 2.88% and 4.7% and 1.37%
CC[C@@H](C)[C@@H](NC(=O)[C@@H](Cc1ccc(O)cc1)NC(=O)[C@H]1CCCN1C(=O)[C@@H](CCCNC(=N)N)NC(=O)[C@H](N)Cc1c[nH]cn1)C(=O)N[C@H](C)C(=O)N[C@H](Cc1c[nH]cn1)C(=O)N[C@H](CCCNC(=N)N)C(=O)N[C@@H](C(=O)N[C@H](Cc1ccc(O)cc1)C(=O)N[C@H](CO)C(=O)N[C@H](Cc1ccccc1)C(N)=O)C(C)C | Transferrin receptor protein 1 (Tfrc, Mus musculus, UniProt Q62351) | flow cytometry | RAW264.7 | 48 h, pH 6, replicate 2, unit not given | reference: 0 h | surface TFRC expression | 1.13
CC1(C)Cc2c(sc(NC(=O)c3ccn[nH]3)c2C(N)=O)C(C)(C)O1 | CFTR (Homo sapiens, UniProt P13569, F312A) | single-channel patch clamp | – | 20 µM, together with: ATP 2 mM | – | open time constant | 1080 ± 327 ms
Nc1ncnc2c1ncn2[C@@H]1O[C@H](COP(=O)(O)CP(=O)(O)OP(=O)(O)O)[C@@H](O)[C@H]1O | P2X purinoceptor 1 (P2RX1, Homo sapiens, UniProt P51575, K136W) | calcium influx | – | 1 µM | reference: ionomycin response | calcium influx | 96.2% and 100% and 96.4%

A few entries again:
SMILES | target | assay | test system | setting | scale | measurement | value
Nc1ncnc2c1ncn2[C@@H]1O[C@H](COP(=O)(O)OP(=O)(O)O)[C@@H](O)[C@H]1O | ATP-sensitive inward rectifier potassium channel 1 (Rattus norvegicus, UniProt P35560) | channel open probability, inhibitor, inside-out patch clamp | – | pH 7.4, Mg2+-free, 1.6 mM | – | Hill coefficient | ~3
CN1C(C(=O)Nc2ccccn2)=C(O)c2sc(Cl)cc2S1(=O)=O | Nuclear receptor subfamily 2 group C member 2 ligand-binding domain | SPR imaging | – | 600 nM | – | koff | 4.55e-08 s⁻¹
